Measured values pooled from the literature.
“And” joins repeats or separate records; there may be more than shown. ± marks the error that the study gave.
GBA2: Beta-glucosidase (GBA2, Homo sapiens, UniProt Q9HCG7)
Sequence of UniProt Q92633 (whole entry, looked up): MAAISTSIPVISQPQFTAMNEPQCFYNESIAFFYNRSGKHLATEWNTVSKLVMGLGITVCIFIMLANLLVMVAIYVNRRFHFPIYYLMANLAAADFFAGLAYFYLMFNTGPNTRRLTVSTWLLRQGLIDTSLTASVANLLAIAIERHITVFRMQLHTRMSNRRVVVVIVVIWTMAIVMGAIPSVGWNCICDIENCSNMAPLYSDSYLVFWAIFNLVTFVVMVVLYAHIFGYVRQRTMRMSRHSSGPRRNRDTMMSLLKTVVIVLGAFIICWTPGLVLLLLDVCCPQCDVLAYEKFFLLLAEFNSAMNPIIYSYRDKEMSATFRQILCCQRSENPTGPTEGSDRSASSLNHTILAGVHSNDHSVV
Sequence of UniProt Q9HCG7 (whole entry, looked up): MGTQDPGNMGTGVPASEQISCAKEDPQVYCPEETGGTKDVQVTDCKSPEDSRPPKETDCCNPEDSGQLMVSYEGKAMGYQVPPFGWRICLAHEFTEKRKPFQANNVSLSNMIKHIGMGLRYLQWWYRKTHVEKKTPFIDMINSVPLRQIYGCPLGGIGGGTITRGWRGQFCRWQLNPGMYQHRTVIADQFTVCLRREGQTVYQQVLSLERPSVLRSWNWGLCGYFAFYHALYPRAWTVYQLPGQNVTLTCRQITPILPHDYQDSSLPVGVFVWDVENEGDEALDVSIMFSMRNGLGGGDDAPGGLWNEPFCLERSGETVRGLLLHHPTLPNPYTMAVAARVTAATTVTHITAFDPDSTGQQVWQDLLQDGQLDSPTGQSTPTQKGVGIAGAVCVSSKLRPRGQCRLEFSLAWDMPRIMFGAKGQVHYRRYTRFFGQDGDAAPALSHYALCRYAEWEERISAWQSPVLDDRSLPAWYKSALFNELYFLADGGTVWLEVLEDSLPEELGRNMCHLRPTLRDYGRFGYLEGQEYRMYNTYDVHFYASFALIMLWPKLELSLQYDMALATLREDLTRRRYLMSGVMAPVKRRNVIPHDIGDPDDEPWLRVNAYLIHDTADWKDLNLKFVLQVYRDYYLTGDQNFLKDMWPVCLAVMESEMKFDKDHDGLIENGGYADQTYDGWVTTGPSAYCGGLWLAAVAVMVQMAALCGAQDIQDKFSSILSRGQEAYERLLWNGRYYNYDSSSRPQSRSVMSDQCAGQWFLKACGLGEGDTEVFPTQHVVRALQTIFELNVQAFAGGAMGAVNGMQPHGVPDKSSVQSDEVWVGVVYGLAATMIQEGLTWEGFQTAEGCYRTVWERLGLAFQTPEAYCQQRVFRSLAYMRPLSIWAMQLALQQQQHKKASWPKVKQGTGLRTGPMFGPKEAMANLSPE

`CCN(C(=O)c1cc(F)ccc1Oc1nncnc1N1CCC2(C1)CN([C@H](CCCN(C)CCOC)C(C)C)C2)C(C)C` gave a GI50 of > 10000 nM (Granta-519; cell growth or viability; 72 h).
`CN1CCCNC(=O)c2cccc(c2)C(=O)NCCCN(C)CCCNc2cccc3c2C(=O)c2cccc(c2C3=O)NCCC1` — result for “log2 fold change”: -0.671 (SAS; RNA-seq, item: PIGF mRNA; 1 µM, 6 h; reference: untreated cells).
For `C=C(NC(=O)c1csc(-c2nc3c(cc2O)-c2nc(cs2)C(=O)NC(C(C)O)C(=O)NC(=C(C)OC)c2nc(cs2)C(=O)NC2c4nc(cs4)C(=O)NC(COC(=O)c4c5c6c(cccc6n4O)COC(=O)C(OC4CC(C)(O)C(N(C)C)C(C)O4)C2OC5)c2nc-3cs2)n1)C(N)=O` (stereo not drawn), “lung bacterial load” read 4.03 log10 CFU/lung (Streptococcus pneumoniae; -25, immunocompromised mice, lung; 16 mg/kg/day once daily, 24 h post-dose).
For `CC(=O)[O-].O.O.O.O.[Ni+2].[O-]c1ccc(Br)cc1C=NCCN1CCOCC1`, the inhibition was 35.8% (nitric oxide scavenging; 160 µM).
The IC50 of `CC(C)c1ccc(N(C)c2ccc3c(c2)OCC[C@H]3CNc2cnccc2C(=O)O)cc1` is reported as 16.3 nM (TE-10; cell growth or viability, ATP luminescence; 7 days).
`O=C(N/N=C/c1ccc2c(ccc[n+]2Cc2ccccc2)c1)c1cncc(C(=O)N/N=C/c2ccc3c(ccc[n+]3Cc3ccccc3)c2)n1` has a ΔTm of 18.9 ± 0.3 °C (myc22 MYC G4-DNA parallel; FRET melting; 1 µM, K1 buffer, DNA 0.2 µM, with: ds26 10 µM).
`COc1cc(O)ccc1CCC(c1ccc(O)cc1)c1cc2c(c(C)c1O)OC(c1ccc(O)cc1)CC2` (mixture of isomers) gave an amount of 44 ± 31 pg/mL blood (item: RvE3; human whole blood; 30 µM, with: Escherichia coli).
For `CC(C)(O)c1ccn2c(-c3ccc(F)c(-c4ccc(F)cc4C#N)c3)cnc2c1F`, “surface fluorescence intensity” read “increased” (hiPSC-derived GABAergic neurons α1 G251D; surface immunofluorescence, item: GABAA α1, β2/β3, γ2 subunits; 5 µM, 24 h, with: hispidulin 10 µM).
`C=CC(=O)Nc1cccc(Cn2ncc3cnc(Nc4cnn(CCOC)c4)nc32)c1` — result for “percent of control”: 67% (RET human; binding, KINOMEscan; 100 nM; lower = stronger binding).
`Cc1ncsc1-c1ccc(C(C)NC(=O)C2CC(O)CN2C(=O)C(NC(=O)CCCCCCCCCCN2CCCC(Nc3ncc(Cl)c(Nc4ccccc4S(=O)(=O)C(C)C)n3)C2)C(C)(C)C)cc1` (stereo not drawn): “log2 fold change” -2 (22Rv1; RNA-seq, item: STPG1 mRNA; concentration not given; reference: DMSO).
`C[n+]1cccc2cc(/C=N/NC(=O)c3cccc(C(=O)N/N=C/c4ccc5c(ccc[n+]5C)c4)n3)ccc21` gave a ΔTm of 19.6 ± 0.5 °C (myc22 MYC G4-DNA parallel; FRET melting; 1 µM, K1 buffer, DNA 0.2 µM).
The selectivity ratio of `CC(C)=CCC/C(C)=C/CC/C(C)=C/COCCCCCN1C[C@H](O)[C@@H](O)[C@H](O)[C@@H]1CO` is reported as 500 (GBA2; inhibitor, 4MU-β-D-glucopyranoside; HEK293T homogenates overexpressing GBA2; reference: GBA1 IC50 over GBA2 IC50).
`C=CC(=O)N1[C@@H](c2ccc3c(c2)OCO3)c2[nH]c3ccccc3c2C[C@H]1C(=O)N1CCN(C)CC1`: “log2 fold change” -0.0145 (CCNE1 WT-3xFLAG:CDK2 complex; co-IP TMT proteomics, item: TICRR; HEK-293T; 20 µM, 6 h; reference: DMSO).
`C[n+]1cccc2cc(/C=N/NC(=O)c3cncc(C(=O)N/N=C/c4ccc5c(ccc[n+]5C)c4)n3)ccc21` gave a ΔTm of 18.9 ± 0.4 °C (myc22 MYC G4-DNA parallel; FRET melting; 1 µM, K1 buffer, DNA 0.2 µM, with: ds26 10 µM).
`COc1ccc(C(=O)CCc2cc(C(CCc3ccc(O)cc3OC)c3ccc(O)cc3)c(O)cc2OC)cc1` (racemic) gave an EPA level of 69800 ± 17100 pg/mL (human blood; 1 µM, with: A23187).
`C[n+]1cccc2cc(/C=N/NC(=O)N/N=C/c3ccc4c(ccc[n+]4C)c3)ccc21` gave a ΔTm of 3.8 ± 0.4 °C (myc22 MYC G4-DNA parallel; FRET melting; 1 µM, K1 buffer, DNA 0.2 µM, with: ds26 10 µM).
`CC(C)C[C@@H](NC(=O)[C@@H](CC(C)C)NC(=O)[C@@H](CC(=O)O)NC(=O)[C@@H](CC(C)C)NC(=O)[C@@H](CC(C)C)NC(=O)[C@@H](CC(C)C)NC(=O)[C@H](NC(=O)[C@@H](CC(=O)O)NC(=O)[C@H](NC(=O)[C@H]1CCCN1C(=O)[C@@H](Cc1ccccc1)NC(=O)[C@@H](CC(C)C)NC(=O)[C@@H](CC(C)C)NC(=O)[C@@H](CC(=O)O)NC(=O)[C@@H](CC(C)C)NC(=O)[C@@H](Cc1ccc(O)cc1)NC(=O)[C@@H](C)NC(=O)[C@@H](CCCNC(=N)N)NC(=O)[C@@H](Cc1c[nH]c2ccccc12)NC(=O)[C@H]1CCCN1C(=O)[C@@H](CC(N)=O)NC(=O)[C@@H](CCC(N)=O)NC(=O)[C@@H](CC(=O)O)NC(=O)[C@@H](CC(=O)O)NC(=O)[C@@H](CSC1CC(=O)N(CCNC(=O)CN2CCN(CC(=O)O)CCN(CC(=O)O)CC2)C1=O)NC(=O)[C@@H](C)N)[C@H](C)O)[C@H](C)O)C(=O)N[C@H](Cc1c[nH]c2ccccc12)C(=O)O` (stereo partly drawn) [fluorine-18 labelled] has a tissue uptake of 16.2 %ID/g (male nude mice, PC-3 xenograft, blood; intravenous, 1 h).
`COC1CN([C@H]2CC[C@H]([C@@]3(C)Oc4c(Cl)cc(C(=O)NCc5c(SC)cc(C)[nH]c5=O)c(C)c4O3)CC2)C1`: “log2 fold change” 1.41 (RNA-seq, item: ZNF219; human, whole blood; dose not given, 24 h; reference: pretreatment baseline).
For `O=C(N/N=C/c1cc[n+](CC2CC2)c2ccccc12)c1cncc(C(=O)N/N=C/c2cc[n+](CC3CC3)c3ccccc23)n1`, the ΔTm was 20.5 ± 0.3 °C (myc22 MYC G4-DNA parallel; FRET melting; 1 µM, K1 buffer, DNA 0.2 µM).
With `CN1CCC[C@]1(C)/C=C/S(=O)(=O)NC(=O)Nc1c2c(cc3c1CCC3)CCC2` the IL-18 inhibition was 96.6% (human, whole blood ex vivo; 25 mg single dose, 12 h, single ascending dose, with: LPS and ATP).
With `CNS(=O)(=O)Nc1nccc(Cc2c(C)c3ccc(Oc4ncccc4F)cc3oc2=O)c1F` the IC50 was > 1000 nM (CAL-120; cell viability; 7 days).
The fold change of `CCN(CC)C(CO)c1cccc2c(C)c(C)oc12` (stereo not drawn) is reported as 0.956 and 1.02 and 0.912 and 0.968 and 1 and 0.969 (Lysophosphatidic acid receptor 1 (LPAR1, Homo sapiens, UniProt Q92633); G-protein dissociation, agonist, NanoBiT; HEK-293T; 100 pM, wild-type receptor; reference: baseline luminescence).
`O=C(N/N=C/c1cc[n+](Cc2ccccc2)c2ccccc12)c1ccc2ccc(C(=O)N/N=C/c3cc[n+](Cc4ccccc4)c4ccccc34)nc2n1` has a ΔTm of 15.7 ± 1.1 °C (myc22 MYC G4-DNA parallel; FRET melting; 1 µM, K1 buffer, DNA 0.2 µM, with: ds26 10 µM).
The selectivity ratio of `OC[C@H]1[C@@H](O)[C@H](O)[C@@H](O)CN1CCCCCOCc1ccccc1-c1ccccc1` is reported as 5000 (GBA2; inhibitor, 4MU-β-D-glucopyranoside; HEK293T homogenates overexpressing GBA2; reference: GBA1 IC50 over GBA2 IC50).
For `CCN(CC)CC#CCNc1ccnc2cc(Cl)ccc12`, the mean revertants was 13 revertants/well (Salmonella typhimurium; mini-Ames test; TA98; 250.0 µg/well, with rat liver S9).
With `CCN(CC)CC(=O)Nc1cccc(-n2cc(-c3ccc4ccc(-c5cn(-c6cccc(NC(=O)CN(CC)CC)c6)nn5)cc4c3)nn2)c1` the fold regulation was -2.19 (RCC4; PCR angiogenesis array, item: NRP2; 5 x IC50, 6 h, normoxia; reference: untreated).
With `O=C(N/N=C/c1cc[n+](CC2CC2)c2ccccc12)C(=O)N/N=C/c1cc[n+](CC2CC2)c2ccccc12` the ΔTm was 2.1 ± 1.7 °C (myc22 MYC G4-DNA parallel; FRET melting; 1 µM, K1 buffer, DNA 0.2 µM, with: ds26 10 µM).
With `Nc1ncc(-c2cc(-c3cnn(CC(F)(F)F)c3)ncc2F)nc1C(=O)NC1CNCC(F)C1` (stereo not drawn) the remaining binding was 80% (FGFR4; KINOMEscan; 1 µM; reference: DMSO control).
`C[n+]1cc(/C=N/NC(=O)c2ccc3ccc4ccc(C(=O)N/N=C/c5cc6ccccc6[n+](C)c5)nc4c3n2)cc2ccccc21` gave a ΔTm of 18.5 ± 7.4 °C (myc22 MYC G4-DNA parallel; FRET melting; 1 µM, K1 buffer, DNA 0.2 µM).
For `c1ccc(-c2n[nH]cc2-c2ccnc3ccccc23)nc1`, “log2 fold change” read 0.01 (KIC1 (Candida albicans); kinase binding, MIB/MS competition; Candida albicans lysate; 1 µM; reference: DMSO).

A few entries again:
`CCN(C(=O)c1cc(F)ccc1Oc1nncnc1N1CCC2(C1)CN([C@H](CCCN(C)CCOC)C(C)C)C2)C(C)C` gave a GI50 of > 10000 nM (Granta-519; cell growth or viability; 72 h).
`CN1CCCNC(=O)c2cccc(c2)C(=O)NCCCN(C)CCCNc2cccc3c2C(=O)c2cccc(c2C3=O)NCCC1` — result for “log2 fold change”: -0.671 (SAS; RNA-seq, item: PIGF mRNA; 1 µM, 6 h; reference: untreated cells).
For `C=C(NC(=O)c1csc(-c2nc3c(cc2O)-c2nc(cs2)C(=O)NC(C(C)O)C(=O)NC(=C(C)OC)c2nc(cs2)C(=O)NC2c4nc(cs4)C(=O)NC(COC(=O)c4c5c6c(cccc6n4O)COC(=O)C(OC4CC(C)(O)C(N(C)C)C(C)O4)C2OC5)c2nc-3cs2)n1)C(N)=O` (stereo not drawn), “lung bacterial load” read 4.03 log10 CFU/lung (Streptococcus pneumoniae; -25, immunocompromised mice, lung; 16 mg/kg/day once daily, 24 h post-dose).
For `CC(=O)[O-].O.O.O.O.[Ni+2].[O-]c1ccc(Br)cc1C=NCCN1CCOCC1`, the inhibition was 35.8% (nitric oxide scavenging; 160 µM).
